Measurements from different studies.
Parts stem from different laboratories: compare values within a part only. Positions count from the first letter of the parent shown.

Block 1
Target: CCNE2, cyclin fold, Cln2 fusion (human)
Method: yeast growth competition, sequencing
Sample: yeast
Setting: weak parent motif
Baseline: not given
Reading: higher = stronger binding
Parent: PKN2 docking peptide (human); VSAVQKLDFSDTM
| Change | normalised enrichment score |
| --- | --- |
| D11L | 0.672 |
| K6Q | 0.707 |
| D11H | 0.33 |
| S2I | 0.365 |
| T12P | 0.812 |
| S10C | -0.239 |
| F9L | -0.26 |
| T12S | 0.38 |
| A3C | 0.152 |
| D11I | 0.11 |
| V1R | -0.123 |
| M13W | 0.32 |
| A3K | -0.283 |
| K6C | 0.0502 |
| S10A | -0.0459 |
| V4I | -0.226 |
| F9E | -0.24 |
| T12D | -0.165 |
| S2E | -0.511 |
| Q5R | 4.41 |
| T12L | 0.456 |
| V1P | -0.0918 |
| D11P | -0.00549 |
| L7W | 0.504 |
| V4W | -0.542 |

Block 2
Target: Transcription factor SOX-2, HMG box (SOX2, Homo sapiens, UniProt P48431, residues 19-118)
Chain of UniProt P48431 (19-118, looked up): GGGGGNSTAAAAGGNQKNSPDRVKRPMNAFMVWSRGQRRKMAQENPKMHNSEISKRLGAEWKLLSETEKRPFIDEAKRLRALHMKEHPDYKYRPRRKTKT
Method: protein-binding microarray
Molecule type: double-stranded DNA, one strand shown
Sample: in vitro
Tested at: not given
Setting: k-mer, scored over probes, only values ≥0.25
Reading: higher = stronger binding
| Strand | E-score |
| --- | --- |
| ATTGTGC | 0.417 |
| ATAATCG | 0.275 |
| GTGAATA | 0.376 |
| ATTATGG | 0.363 |
| ATTGTTG | 0.46 |
| ATTAAAA | 0.277 |
| AAGAATG | 0.351 |
| GTGACAA | 0.284 |
| ATTAATG | 0.308 |
| GTAATTA | 0.28 |
| AAAATAA | 0.267 |
| TTGTAAA | 0.29 |
| AGTGAAT | 0.368 |
| GAATGAA | 0.327 |
| ATAATTG | 0.459 |

Block 3
Target: Histone acetyltransferase KAT6A, winged helix 1, GST fusion (KAT6A, Homo sapiens, UniProt Q92794, residues 1-85)
Method: protein binding microarray
Molecule type: double-stranded DNA, one strand shown
Sample: in vitro
Tested at: not given
Setting: 8-mer, flanks averaged, mean of 2 arrays, mostly near background
Baseline: not given
Reading: higher = stronger binding
Target sequence (chain): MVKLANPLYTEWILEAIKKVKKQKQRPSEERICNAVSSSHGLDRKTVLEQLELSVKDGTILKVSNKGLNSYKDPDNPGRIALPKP
| Strand | E-score |
| --- | --- |
| ATTCGCAA | -0.0241 |
| CGCAGGCA | 0.173 |
| CGCGAAGC | 0.255 |
| CGGGCTGC | 0.272 |
| ATAGACTG | -0.0943 |
| GACAACAC | -0.173 |
| ACAATAGA | -0.0723 |
| ACACTAAA | -0.113 |
| AACACGGT | 0.13 |
| ACGACGGC | 0.374 |
| AAAGGCAT | -0.141 |
| ATGAGTTC | -0.0286 |
| TCCTAGGA | -0.0596 |
| CCCAGGTC | -0.0351 |
| AGGGACGA | -0.0246 |
| GCGGTCTA | 0.257 |
| CGAATTTA | -0.126 |

Block 4
Target: FOSL2, bZIP domain (human)
Method: DHFR protein complementation
Sample: yeast
Setting: single substitutions, most at no-binding floor
Baseline: wild-type JUN-FOS pair
Reading: higher = stronger binding
Parent: JUN, bZIP domain (human); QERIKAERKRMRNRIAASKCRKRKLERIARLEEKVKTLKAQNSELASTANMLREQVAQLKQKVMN; partner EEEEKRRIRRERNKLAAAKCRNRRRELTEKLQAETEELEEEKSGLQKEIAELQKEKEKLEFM
| Change | binding fitness [natural log] |
| --- | --- |
| K36A | 0.159 |
| M51C | 0.00877 |
| V56M | -0.38 |
| V35F | -0.458 |
| L52H | -1.09 |
| A40T | 0.13 |
| S47P | -0.934 |
| N42W | -0.931 |
| K39F | -0.971 |
| T48W | -0.0584 |
| R53H | -0.334 |
| L38Q | -0.123 |

Block 5
Target: ABI1, truncated, D143A, DHFR fusion (Arabidopsis thaliana)
Method: DHFR PCA, deep sequencing
Sample: yeast
Setting: methotrexate growth selection, single substitutions
Together with: (+)-ABA 0.39 µM
Baseline: wild-type fitted maximum
Reading: higher = stronger binding
Parent: PYL1, truncated, DHFR fusion (Arabidopsis thaliana); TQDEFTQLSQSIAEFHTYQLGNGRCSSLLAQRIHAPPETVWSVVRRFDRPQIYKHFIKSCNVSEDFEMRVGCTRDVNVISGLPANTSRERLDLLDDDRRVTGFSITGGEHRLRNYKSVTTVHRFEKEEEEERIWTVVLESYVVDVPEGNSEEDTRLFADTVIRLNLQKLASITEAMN
| Change | relative binding score [%] |
| --- | --- |
| L156W | 18 |
| R132V | 41.8 |
| V70N | -7.02 |
| I105Y | -11.7 |
| V44F | -5.7 |
| E125C | 49.3 |
| C72F | -5.35 |
| A175L | 16.2 |
| D75E | 73.2 |
| E147C | 11.8 |
| V142Q | 22.5 |
| L112N | -14.7 |
| P37C | 9.92 |
| Y115P | -10.1 |
| A35L | -6.93 |
| D65V | 11.9 |
| V62Y | 2.95 |
| L164E | -6.08 |
| V40K | -19.4 |
| P146F | -28.6 |
| E130H | 45.3 |
| I52Y | 10.9 |

Block 6
Target: Ras GTPase-activating protein-binding protein 1, full length (G3BP1, Homo sapiens, UniProt Q13283)
Chain of UniProt Q13283 (whole entry, looked up): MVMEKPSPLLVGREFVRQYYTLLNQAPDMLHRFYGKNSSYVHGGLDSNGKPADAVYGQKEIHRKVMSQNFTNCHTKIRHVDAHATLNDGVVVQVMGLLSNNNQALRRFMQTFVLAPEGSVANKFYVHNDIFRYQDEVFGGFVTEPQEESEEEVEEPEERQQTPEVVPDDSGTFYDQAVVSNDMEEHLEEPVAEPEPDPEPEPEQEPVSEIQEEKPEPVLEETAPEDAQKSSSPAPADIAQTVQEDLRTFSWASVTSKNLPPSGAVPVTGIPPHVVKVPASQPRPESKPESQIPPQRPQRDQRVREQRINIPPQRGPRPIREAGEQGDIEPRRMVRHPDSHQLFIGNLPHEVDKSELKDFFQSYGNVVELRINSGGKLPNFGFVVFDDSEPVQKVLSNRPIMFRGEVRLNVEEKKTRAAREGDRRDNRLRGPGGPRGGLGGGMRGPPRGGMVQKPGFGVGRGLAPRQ
Method: RNA Bind-n-Seq
Molecule type: RNA
Sample: in vitro
Tested at: 200 nM
Setting: whole 134-nt RNA, ends assumed
Together with: 150 mM KCl
Baseline: input library
Reading: higher = stronger binding
Shared flanks, not repeated: GGGAGUUCUACAGUCCGACGAUC … UGGAAUUCUCGGGUGUCAAGG
| Strand | log2 enrichment |
| --- | --- |
| AAGUCCUGUGCUACACAUCGUAUGUACCGAAUCGGGUUUGGGAAAAAAAGGGUGGGAAAGUAUUAUGUUACGCCGUUCGGAUCUGCACUU | 0.244 |
| CUCAAGUCCUGUGCUACACAUCGUAUGUACCGAAUCGGCCGGGCCGGGGCCGGGAAAGUAUUAUGUUACGCCGUUCGGAUCUGCACUUCC | -0.324 |
| AAGUCCUGUGCUACACAUCGUAUGUACCGAAUCGGGUUUGGGAAAAAAAGGGAGGGAAAGUAUUAUGUUACGCCGUUCGGAUCUGCACUU | 0.483 |
| GCAGGAAGUAAAAACAAAUGGAAAUGCUUCGGAUAGUGGCAGGGGUGGGAAAUGCUAAGGAAAGGGUGGGAUGGGAGUGGGUAAAGAGUU | 1.16 |
| UCAAGUCCUGUGCUACACAUCGUAUGUACCGAAUCGGGGUUGGGUUGGGGUUGGAAAGUAUUAUGUUACGCCGUUCGGAUCUGCACUUCC | 0.237 |
| ACCAUGCAGGUGGGCAUCUUUGGGAAGUGGGGCAAGGGGGGGAUAAGGAGGGGGGUAACACUUUGGGAACAGGUGGUCCCAGGUCGUUUC | 0.756 |
| UUCAGUUAUUCAAGCGGAGAAAUGUUGCUACAGCAGAAGAAGAAACAGAAGAAGAAGUUAUGUCAGAUGGAGGCUUUCAUGAGGCUCAGA | -1.76 |
| UCCUGUGCUACACAUCGUAUGUACCGAAUCGGAAAAAAGGGGAAAAAAGGGAAAAAAGGGAAAGUAUUAUGUUACGCCGUUCGGAUCUGC | -0.437 |
| UGGGAGGUGGAUGUUGUUUAUUUUUUUAGCUCAUUUCCAGGGGUGGGAAUUUUUUUUUAAUAUGUGUCAUGAAUAAAGUUGUUUUUGAAA | 0.1 |
| CAAGUCCUGUGCUACACAUCGUAUGUACCGAAUCGGCCCGGGCCCGGGGCCCGGGGAAAGUAUUAUGUUACGCCGUUCGGAUCUGCACUU | -1.21 |
| UCAAGUCCUGUGCUACACAUCGUAUGUACCGAAUCGGUUUGGUGGUUUUUUUGGAAAGUAUUAUGUUACGCCGUUCGGAUCUGCACUUCC | -0.817 |
| UUGUGAGCUGCAAGCUAGGCUGCAGGCCCAGGAAGAACAGCAUCAGGAAGUCCAGAAGGCAAAAGAAGCAGACAUAGAGAAGCUGAACCA | -1.1 |
| UGGCCCUGGUGGCAUGCGGGGAGGAAGAGGUGGCCUCAUGGAUCGUGGUGGUUCCGGUGGAAUGUUCAGAGGUGGCCGUGGUGGAGACAG | 0.249 |
| CAAGUCCUGUGCUACACAUCGUAUGUACCGAAUCGGUUUUUUUGGUGGUUUUUGGAAAGUAUUAUGUUACGCCGUUCGGAUCUGCACUUC | -0.903 |

Block 7
Target: Sal-like protein 4, full length isoform A (SALL4, Homo sapiens, UniProt Q9UJQ4, residues 1-1053)
Chain of UniProt Q9UJQ4 (whole entry, looked up): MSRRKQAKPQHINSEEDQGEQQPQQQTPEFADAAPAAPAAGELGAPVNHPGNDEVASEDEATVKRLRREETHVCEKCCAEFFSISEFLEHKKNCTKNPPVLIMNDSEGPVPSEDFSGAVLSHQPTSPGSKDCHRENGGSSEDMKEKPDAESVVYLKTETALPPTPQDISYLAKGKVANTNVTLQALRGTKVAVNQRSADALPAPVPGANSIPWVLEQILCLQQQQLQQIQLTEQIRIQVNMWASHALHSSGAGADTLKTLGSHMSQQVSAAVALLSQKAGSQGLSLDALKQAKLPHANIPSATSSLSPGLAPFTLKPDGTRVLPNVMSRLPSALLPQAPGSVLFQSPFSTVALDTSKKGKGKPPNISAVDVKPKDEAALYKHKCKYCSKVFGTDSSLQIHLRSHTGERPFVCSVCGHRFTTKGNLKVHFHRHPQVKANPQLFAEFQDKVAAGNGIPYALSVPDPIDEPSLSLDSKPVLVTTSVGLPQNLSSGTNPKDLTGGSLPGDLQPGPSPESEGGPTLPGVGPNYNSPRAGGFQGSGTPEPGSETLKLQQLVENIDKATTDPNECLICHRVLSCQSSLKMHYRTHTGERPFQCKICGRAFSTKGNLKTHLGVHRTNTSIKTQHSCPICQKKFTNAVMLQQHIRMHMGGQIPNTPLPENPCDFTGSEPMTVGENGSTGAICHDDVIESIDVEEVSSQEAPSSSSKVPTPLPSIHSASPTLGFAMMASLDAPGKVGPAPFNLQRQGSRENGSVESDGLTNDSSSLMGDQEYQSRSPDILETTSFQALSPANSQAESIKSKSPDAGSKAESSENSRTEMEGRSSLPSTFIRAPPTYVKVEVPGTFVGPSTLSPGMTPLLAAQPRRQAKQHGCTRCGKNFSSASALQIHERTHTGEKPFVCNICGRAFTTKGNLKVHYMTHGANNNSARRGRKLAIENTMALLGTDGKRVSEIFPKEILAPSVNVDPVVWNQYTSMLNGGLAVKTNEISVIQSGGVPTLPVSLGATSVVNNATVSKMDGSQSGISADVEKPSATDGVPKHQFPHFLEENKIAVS
Method: universal PBM
Molecule type: double-stranded DNA, one strand shown
Sample: in vitro
Tested at: 600 nM
Setting: 8-mer, flanks averaged, mean of replicates
Reading: higher = stronger binding
| Strand | E-score |
| --- | --- |
| CCGCAAAA | 0.0761 |
| CCAGGGTA | -0.255 |
| CCGACGGC | -0.357 |
| AAGGAAAC | -0.111 |
| CATCTCGG | -0.0456 |
| CCTATATC | 0.198 |
| ATAAGATC | 0.0824 |
| GAACGAGC | 0.0172 |
| CGGCGTGC | -0.231 |
| AGGCCCTG | -0.279 |
| CTCAGGTA | -0.117 |
| TCAGTGGA | -0.142 |
| AAACCTGC | -0.128 |
| GCCCAAGC | -0.257 |
| CCAGGTCC | -0.282 |
| GTTGCCGA | -0.171 |
| ATCTTAGA | 0.039 |
| CATAGCAG | 0.0407 |
| AGACCGAC | -0.229 |
| ACCCTAGC | -0.176 |
| AAGGACCC | -0.319 |
| CCAGTTGC | -0.202 |

A few entries again (block 2):
| Strand | E-score |
| --- | --- |
| ATAATCG | 0.275 |
| GAATGAA | 0.327 |
| ATAATTG | 0.459 |
| ATTATGG | 0.363 |
| TTGTAAA | 0.29 |
| ATTAAAA | 0.277 |
| AGTGAAT | 0.368 |
| GTGAATA | 0.376 |
| GTGACAA | 0.284 |
| ATTGTGC | 0.417 |
| GTAATTA | 0.28 |
| ATTGTTG | 0.46 |
| AAGAATG | 0.351 |
| AAAATAA | 0.267 |
| ATTAATG | 0.308 |
